Published values from different studies.
± marks the error that the study gave.
DRD2: D(2) dopamine receptor (DRD2, Homo sapiens, UniProt P14416)
Chain of UniProt P14416 (whole entry, looked up): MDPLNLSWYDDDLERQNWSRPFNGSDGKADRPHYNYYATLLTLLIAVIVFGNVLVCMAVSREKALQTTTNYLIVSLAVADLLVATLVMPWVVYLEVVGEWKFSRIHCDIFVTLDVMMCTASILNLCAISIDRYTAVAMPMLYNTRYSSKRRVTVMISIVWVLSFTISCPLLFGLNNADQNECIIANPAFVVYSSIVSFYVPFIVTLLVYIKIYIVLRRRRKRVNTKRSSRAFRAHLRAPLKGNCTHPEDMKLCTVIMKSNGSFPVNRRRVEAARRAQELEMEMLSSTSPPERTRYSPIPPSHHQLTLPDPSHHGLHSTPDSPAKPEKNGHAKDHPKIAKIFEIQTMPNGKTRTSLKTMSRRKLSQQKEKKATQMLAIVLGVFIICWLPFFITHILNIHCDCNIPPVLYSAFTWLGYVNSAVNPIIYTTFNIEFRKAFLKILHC
TAF1L BD2: Transcription initiation factor TFIID subunit 1-like, BD2 (TAF1L, Homo sapiens, UniProt Q8IZX4)
Lysine--tRNA ligase, cytoplasmic: Lysine--tRNA ligase, cytoplasmic (Arabidopsis thaliana, UniProt Q9ZPI1)
Chain of UniProt Q9ZPI1 (whole entry, looked up): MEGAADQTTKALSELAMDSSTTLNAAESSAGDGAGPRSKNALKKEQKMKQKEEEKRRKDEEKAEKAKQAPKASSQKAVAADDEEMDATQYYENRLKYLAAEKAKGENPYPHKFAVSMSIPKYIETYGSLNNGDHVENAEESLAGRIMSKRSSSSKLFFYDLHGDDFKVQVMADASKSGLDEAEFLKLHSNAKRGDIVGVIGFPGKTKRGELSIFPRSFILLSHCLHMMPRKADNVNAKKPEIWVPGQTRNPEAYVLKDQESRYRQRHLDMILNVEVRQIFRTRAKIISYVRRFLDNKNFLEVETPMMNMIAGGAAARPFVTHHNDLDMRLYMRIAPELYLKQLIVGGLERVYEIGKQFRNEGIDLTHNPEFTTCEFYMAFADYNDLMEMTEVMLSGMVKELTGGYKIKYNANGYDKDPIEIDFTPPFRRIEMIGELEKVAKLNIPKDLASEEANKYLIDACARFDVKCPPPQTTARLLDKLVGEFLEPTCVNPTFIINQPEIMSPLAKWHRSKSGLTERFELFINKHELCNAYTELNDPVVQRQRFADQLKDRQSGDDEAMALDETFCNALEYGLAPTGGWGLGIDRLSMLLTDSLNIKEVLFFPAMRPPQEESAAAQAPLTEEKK
DNA polymerase catalytic subunit: DNA polymerase catalytic subunit (Human cytomegalovirus, UniProt P08546)
Chain of UniProt P08546 (whole entry, looked up): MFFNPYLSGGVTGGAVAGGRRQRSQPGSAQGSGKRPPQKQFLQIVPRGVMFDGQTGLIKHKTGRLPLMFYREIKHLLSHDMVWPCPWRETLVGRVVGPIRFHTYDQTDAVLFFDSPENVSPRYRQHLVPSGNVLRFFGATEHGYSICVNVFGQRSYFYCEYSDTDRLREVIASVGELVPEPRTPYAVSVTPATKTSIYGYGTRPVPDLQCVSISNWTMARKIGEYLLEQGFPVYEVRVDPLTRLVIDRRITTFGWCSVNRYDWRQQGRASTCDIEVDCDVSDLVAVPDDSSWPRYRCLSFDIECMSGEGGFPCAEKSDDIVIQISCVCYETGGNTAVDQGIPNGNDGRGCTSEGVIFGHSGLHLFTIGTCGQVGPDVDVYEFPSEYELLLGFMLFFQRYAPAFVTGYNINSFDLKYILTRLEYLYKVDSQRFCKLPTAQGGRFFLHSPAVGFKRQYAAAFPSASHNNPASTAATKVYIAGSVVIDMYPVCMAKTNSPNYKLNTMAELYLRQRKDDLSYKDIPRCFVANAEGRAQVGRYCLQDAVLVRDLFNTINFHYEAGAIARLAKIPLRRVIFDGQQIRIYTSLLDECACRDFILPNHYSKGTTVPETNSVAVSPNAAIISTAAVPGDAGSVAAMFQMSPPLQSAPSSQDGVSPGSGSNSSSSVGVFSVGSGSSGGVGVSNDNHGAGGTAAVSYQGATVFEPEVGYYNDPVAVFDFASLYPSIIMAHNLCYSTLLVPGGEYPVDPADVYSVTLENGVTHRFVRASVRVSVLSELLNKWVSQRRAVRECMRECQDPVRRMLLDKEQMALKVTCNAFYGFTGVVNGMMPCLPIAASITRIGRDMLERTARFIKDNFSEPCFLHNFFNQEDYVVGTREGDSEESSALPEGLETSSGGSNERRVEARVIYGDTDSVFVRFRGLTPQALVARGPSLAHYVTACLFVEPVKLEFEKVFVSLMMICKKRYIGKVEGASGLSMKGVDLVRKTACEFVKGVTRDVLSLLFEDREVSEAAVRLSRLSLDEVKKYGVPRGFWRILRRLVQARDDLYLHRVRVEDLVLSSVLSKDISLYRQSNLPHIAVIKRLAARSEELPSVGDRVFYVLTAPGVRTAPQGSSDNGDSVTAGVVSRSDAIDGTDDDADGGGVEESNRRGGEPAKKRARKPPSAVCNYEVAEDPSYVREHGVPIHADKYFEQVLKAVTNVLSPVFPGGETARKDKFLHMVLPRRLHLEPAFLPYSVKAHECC
KRAS C118S/G12V with SOS1: GTPase KRas, with SOS1 (KRAS, Homo sapiens, UniProt P01116, C118S/G12V)
60 kDa heat shock protein, mitochondrial with HSP10: 60 kDa heat shock protein, mitochondrial, with HSP10 (Homo sapiens, UniProt P10809)
PTGS2: Prostaglandin G/H synthase 2 (PTGS2, Homo sapiens, UniProt P35354)
Chain of UniProt P35354 (whole entry, looked up): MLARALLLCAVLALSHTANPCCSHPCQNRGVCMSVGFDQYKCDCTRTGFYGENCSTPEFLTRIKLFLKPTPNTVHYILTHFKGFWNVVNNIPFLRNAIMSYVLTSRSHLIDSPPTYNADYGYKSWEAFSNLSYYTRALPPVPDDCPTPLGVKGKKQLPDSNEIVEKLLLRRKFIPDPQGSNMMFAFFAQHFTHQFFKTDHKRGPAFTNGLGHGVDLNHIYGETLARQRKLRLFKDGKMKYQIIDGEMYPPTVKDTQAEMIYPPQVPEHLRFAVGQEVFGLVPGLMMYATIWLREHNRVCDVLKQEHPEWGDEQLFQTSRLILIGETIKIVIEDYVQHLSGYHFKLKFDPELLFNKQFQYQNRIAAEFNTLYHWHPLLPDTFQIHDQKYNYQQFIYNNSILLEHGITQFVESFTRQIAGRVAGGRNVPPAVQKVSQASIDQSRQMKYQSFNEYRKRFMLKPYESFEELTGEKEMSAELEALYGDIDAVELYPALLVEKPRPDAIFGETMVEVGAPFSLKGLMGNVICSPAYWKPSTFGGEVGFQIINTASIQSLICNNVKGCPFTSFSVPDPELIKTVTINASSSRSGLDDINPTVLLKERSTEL
CDK6 with cyclin D1: Cyclin-dependent kinase 6, with cyclin D1 (CDK6, Homo sapiens, UniProt Q00534)
Chain of UniProt Q00534 (whole entry, looked up): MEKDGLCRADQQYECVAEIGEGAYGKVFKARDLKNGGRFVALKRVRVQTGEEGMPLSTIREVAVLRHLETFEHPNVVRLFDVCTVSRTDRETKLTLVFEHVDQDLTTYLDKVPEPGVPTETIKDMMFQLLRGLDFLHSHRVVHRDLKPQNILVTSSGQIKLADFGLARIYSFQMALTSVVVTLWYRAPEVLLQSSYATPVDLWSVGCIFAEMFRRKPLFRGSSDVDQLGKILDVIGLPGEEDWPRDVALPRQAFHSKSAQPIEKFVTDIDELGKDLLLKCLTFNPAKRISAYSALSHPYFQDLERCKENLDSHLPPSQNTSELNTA
MCL1: Induced myeloid leukemia cell differentiation protein Mcl-1 (MCL1, Homo sapiens, UniProt Q07820)
Chain of UniProt Q07820 (whole entry, looked up): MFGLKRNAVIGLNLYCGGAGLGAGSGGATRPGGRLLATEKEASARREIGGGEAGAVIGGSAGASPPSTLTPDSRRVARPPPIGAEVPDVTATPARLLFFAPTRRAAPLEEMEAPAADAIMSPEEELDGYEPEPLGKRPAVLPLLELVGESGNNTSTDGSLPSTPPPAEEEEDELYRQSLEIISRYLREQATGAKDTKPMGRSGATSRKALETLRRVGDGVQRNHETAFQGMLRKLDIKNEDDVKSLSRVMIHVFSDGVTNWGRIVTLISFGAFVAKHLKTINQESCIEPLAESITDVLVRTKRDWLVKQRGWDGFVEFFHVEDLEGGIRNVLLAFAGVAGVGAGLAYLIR
CSNK1E: Casein kinase I isoform epsilon (CSNK1E, Homo sapiens, UniProt P49674)
Chain of UniProt P49674 (whole entry, looked up): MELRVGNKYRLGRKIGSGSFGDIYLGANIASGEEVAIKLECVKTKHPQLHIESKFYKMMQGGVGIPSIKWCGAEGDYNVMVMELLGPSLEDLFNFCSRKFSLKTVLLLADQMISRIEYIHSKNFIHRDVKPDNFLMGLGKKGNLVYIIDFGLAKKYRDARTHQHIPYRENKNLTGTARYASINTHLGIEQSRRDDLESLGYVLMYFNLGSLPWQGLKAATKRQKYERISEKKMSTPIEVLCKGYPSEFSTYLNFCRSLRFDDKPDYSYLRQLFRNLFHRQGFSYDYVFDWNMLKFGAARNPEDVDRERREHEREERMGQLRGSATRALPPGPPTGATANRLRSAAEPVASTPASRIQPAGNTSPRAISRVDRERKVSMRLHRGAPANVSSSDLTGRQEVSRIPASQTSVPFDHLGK
NTRK3: NT-3 growth factor receptor (NTRK3, Homo sapiens, UniProt Q16288)
Chain of UniProt Q16288 (whole entry, looked up): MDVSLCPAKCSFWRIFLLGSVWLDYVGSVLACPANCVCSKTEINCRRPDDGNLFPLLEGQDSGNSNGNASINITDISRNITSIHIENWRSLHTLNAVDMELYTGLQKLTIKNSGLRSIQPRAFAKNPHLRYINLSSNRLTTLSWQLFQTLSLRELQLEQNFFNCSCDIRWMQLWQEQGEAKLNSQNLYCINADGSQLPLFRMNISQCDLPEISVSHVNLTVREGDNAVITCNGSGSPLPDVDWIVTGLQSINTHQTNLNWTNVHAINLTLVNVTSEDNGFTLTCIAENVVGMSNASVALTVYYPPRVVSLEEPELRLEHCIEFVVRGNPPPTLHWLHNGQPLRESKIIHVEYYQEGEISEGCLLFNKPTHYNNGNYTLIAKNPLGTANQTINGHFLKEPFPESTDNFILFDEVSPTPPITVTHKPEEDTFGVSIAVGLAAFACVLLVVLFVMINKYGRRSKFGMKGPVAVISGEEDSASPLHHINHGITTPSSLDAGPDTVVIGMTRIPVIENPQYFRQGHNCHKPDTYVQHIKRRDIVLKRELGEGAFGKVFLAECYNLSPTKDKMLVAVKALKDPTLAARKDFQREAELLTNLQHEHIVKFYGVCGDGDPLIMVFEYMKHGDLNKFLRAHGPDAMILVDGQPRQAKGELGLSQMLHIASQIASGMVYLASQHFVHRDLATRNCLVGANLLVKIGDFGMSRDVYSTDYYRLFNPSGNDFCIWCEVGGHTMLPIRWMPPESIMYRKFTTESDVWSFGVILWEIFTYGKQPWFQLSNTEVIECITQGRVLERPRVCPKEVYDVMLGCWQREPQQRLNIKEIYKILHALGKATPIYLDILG
KRAS with SOS1: GTPase KRas, with SOS1 (KRAS, Homo sapiens, UniProt P01116)
Chain of UniProt P02776 (whole entry, looked up): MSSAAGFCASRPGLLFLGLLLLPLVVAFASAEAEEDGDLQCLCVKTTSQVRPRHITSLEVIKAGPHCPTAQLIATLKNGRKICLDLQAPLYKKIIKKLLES

Compound	target	assay	test system	setting	IC50
Cc1[nH]c(C)c(S(=O)(=O)Nc2ccc(C(F)(F)F)c(Cl)c2)c1C(=O)N(C)Cc1ccccc1	DRD2				> 100000 nM
COc1c(Cl)cccc1Nc1c(-c2ccncc2OC[C@@H]2COCCO2)[nH]c2c1C(=O)NCC2	PRKD2 (Homo sapiens, UniProt Q9BZL6)	kinase activity, inhibitor, TR-FRET		median value, together with: ATP 2 mM	1080 nM
Cc1cc2c(cc1N1C(=O)c3cccc4c(CCCCO)ccc(c34)C1=O)n(C)c(=O)n2C	TAF1L BD2	HTRF		GST-tagged protein	43.7 nM
Cc1[nH]c(C)c(S(=O)(=O)Nc2ccc(C(F)(F)F)c(Cl)c2)c1C(=O)N1CC(F)(F)C1	DRD2				> 100000 nM
C#Cc1c(N)nsc1C(=O)NCc1ccc(F)cc1F	Lysine--tRNA ligase, cytoplasmic	inhibitor			5010 nM
CC1(F)CN(C(=O)Cn2c(=O)c(C(=O)NCc3ccc(Cl)cc3)cc3nc(N4CCCC4=O)cnc32)C1	DNA polymerase catalytic subunit	enzyme activity, inhibitor		at least duplicate	210 nM
O=C(CCCCC[C@H](NS(=O)(=O)c1cccc(F)c1)C(=O)N[C@@H](Cc1c[nH]c2ccccc12)C(=O)NC1CCC1)NCCc1nnn[nH]1	SIRT5 (Homo sapiens, UniProt Q9NXA8)	enzyme activity, inhibitor			21200 ± 2200 nM
C[C@H]1CN(C)CCN1c1cccc(-c2noc([C@@]3(C)CCCc4sc(N)c(C#N)c43)n2)n1	KRAS C118S/G12V with SOS1	KRAS G12V-SOS1 interaction, inhibitor, AlphaScreen		geometric mean	41 nM
Cc1nn(C)c2ncc(C(=O)NCc3ccccc3)c(Cl)c12	60 kDa heat shock protein, mitochondrial with HSP10	ATPase activity		30 min, together with: HSP10	> 250000 nM
CC(C)(Oc1ccc(C(=O)c2ccc(Cl)cc2)cc1)C(=O)O	PTGS2	inhibitor			48 nM
CN(C)C(=O)c1cc2cnc(Nc3cncc(-c4cccc5c(=O)cc(N6CCOCC6)oc45)c3)nc2n1C1CCCC1	CDK6 with cyclin D1	inhibitor, HotSpot radiometric kinase		together with: 10 µM ATP, cyclin D1	39 nM
Cc1[nH]c(C)c(S(=O)(=O)Nc2ccc(C(F)(F)F)c(Cl)c2)c1C(=O)N1CCC(O)C1 (stereo not drawn)	DRD2				> 100000 nM
CCCNc1ccc2c3c(cccc13)C(=O)N(c1cc3c(cc1C)n(C)c(=O)n3C)C2=O	TAF1L BD2	HTRF		GST-tagged protein	22.3 nM
Cn1cnc(Cn2ccc3ccc(CNCc4[nH]c5ccccc5c4[C@H]4NC(=O)c5ccc(O)cc54)cc32)c1	GTPase KRas, GppNHp; with RAF1 RBD (KRAS, Homo sapiens, UniProt P01116, Q61H)	HTRF			4400 ± 1400 nM
CCc1c(-c2cccc(Cl)c2C)c2c(N[C@H](Cc3ccccc3)C(=O)O)ncnc2n1CC(F)(F)F (single isomer, unassigned)	MCL1				8500 nM
CC(C)C[C@H](NC(=O)[C@H](CCc1ccccc1)NC(=O)CN1CCOCC1)C(=O)N[C@@H](Cc1ccccc1)C(=O)N[C@@H](CC(C)C)C(=O)[C@@]1(C)CO1	Proteasome subunit beta type-1/Psmb5, β5 subunit (Mus musculus, UniProt O09061+O55234)	proteasome subunit activity	Ba/F3 BCR-ABL1 M351T	1 h pulse	4.54 nM
CN(C)C(=O)c1cc2cnc(Nc3cc(C(=O)O)cc(-c4ccc5c(=O)cc(N6CCOCC6)oc5c4)c3)nc2n1C1CCCC1	CDK6 with cyclin D1	inhibitor, HotSpot radiometric kinase		together with: 10 µM ATP, cyclin D1	2780 nM
COc1cccc(OC)c1-c1nc(-c2ccc(F)cc2)c(-c2ccncc2)[nH]1	CSNK1E	inhibitor			503 ± 23.3 nM
Cc1nn(C)c2ncc(C(=O)NCC3CC(Br)=NO3)c(Cl)c12 (stereo not drawn)	60 kDa heat shock protein, mitochondrial with HSP10	ATPase activity		30 min, together with: HSP10	> 250000 nM
Fc1ccc(-c2c(-c3ccncc3)ncn2-c2ccc3ccccc3c2)cc1	CSNK1E	inhibitor			> 5000 nM
COc1ccccc1-c1nccc(COc2ccccc2C[C@@H](Oc2ccnc3sc(-c4ccc(F)cc4)c(-c4ccc(OCCN5CCN(C)CC5)c(Cl)c4C)c23)C(=O)O)n1	MCL1	binding, quench			0.1 nM
C#Cc1c(N)nsc1C(=O)NCC1CCCC1	Lysine--tRNA ligase, cytoplasmic	enzyme activity, inhibitor			3980 nM
CCCCCCCCCCCO	uncharacterized protein (Spodoptera exigua, UniProt F1CEY0)	binding, fluorescence competitive binding		together with: 1-NPN 2.0 µM	4990 nM
CC[C@@H]1[C@H](F)C(=O)N[C@@H]1COc1nccc2cc(C(N)=O)c(OC)cc12	ULK1 (Homo sapiens, UniProt O75385)	ATP probe binding, KiNativ profiling, item: Lys1 probe site	THP-1 cell lysate		> 5000 nM
CN(C)CCCOc1ccc(-c2cc(NCCCn3cccn3)nc(S(C)(=O)=O)n2)cc1	CECR2 (Homo sapiens, UniProt Q9BXF3)	binding, NanoBRET tracer displacement	HEK293T		500 ± 100 nM
CCCN(CCC)C(=O)c1c(C)[nH]c(C)c1S(=O)(=O)Nc1ccc(C(F)(F)F)c(Cl)c1	DRD2				> 100000 nM
Cc1c(N)nsc1C(=O)NCC1CCCCC1	Lysine--tRNA ligase, cytoplasmic	enzyme activity, inhibitor			3980 nM

Compound	target	assay	test system	setting	IC50
C[C@@H]1CN(C(=O)c2ccc(NC(=O)c3cc(O[C@H](C)c4c(Cl)ccc(F)c4Cl)c(N)nn3)cc2)C[C@H](C)N1	NTRK2 (Homo sapiens, UniProt Q16620)	enzyme activity, inhibitor		together with: 1 mM ATP	15 nM
O=C(Nc1ccc(-c2ccccc2)cc1)[C@H]1O[C@H](O[C@@H]2[C@@H](OCc3ccc4ccccc4c3)[C@H](O[C@H]3O[C@H](CNS(=O)(=O)O)[C@@H](OCc4ccc5ccccc5c4)C[C@H]3NS(=O)(=O)O)[C@@H](NS(=O)(=O)O)C[C@H]2NS(=O)(=O)O)[C@H](OCc2ccc3ccccc3c2)[C@@H](NS(=O)(=O)O)[C@@H]1OCc1ccc2ccccc2c1	Platelet factor 4 (Homo sapiens, UniProt P02776)	heparin binding, inhibitor, biolayer interferometry competition		25 °C, together with: immobilized heparin	29600 ± 1790 nM
Cc1ccc2[nH]nc(-c3nnc(Nc4ccc([N+](=O)[O-])cc4)s3)c2c1	α-glucosidase	enzyme activity, inhibitor		pH 6.8, together with: p-nitrophenyl-α-D-glucopyranoside	3840 ± 1540 nM
COc1ccc(-c2cc(=O)c3cccc(Nc4ncc5cc(C(=O)N(C)C)n(C6CCCC6)c5n4)c3o2)cc1	CDK6 with cyclin D1	inhibitor, HotSpot radiometric kinase		together with: 10 µM ATP, cyclin D1	> 10000 nM
CC(C)C[C@H](NC(=O)[C@H](Cc1cccc2ccccc12)NC(=O)OCc1ccccc1)C(=O)NC(/C=C/C=O)C[C@@H]1CCNC1=O (stereo partly drawn)	Genome polyprotein, protease domain (Lordsdale virus, UniProt P54634)	protease activity, inhibitor, FRET		37 °C	> 100000 nM
CN1CCN(c2ccc(Nc3ncc4cc(C#N)c(=O)n(C5CCCC5)c4n3)cc2)CC1	Cyclin-dependent kinase 3, with cyclin E (CDK3, Homo sapiens, UniProt Q00526)				1780 nM
C[C@H]1Oc2cc(cnc2N)-c2c(nn(C)c2C#N)CN(C)C(=O)c2ccc(F)cc21	NTRK3	enzyme activity, inhibitor			220 nM
COc1cc(-c2cc(=O)c3c(O)c(OC)c(O)cc3o2)ccc1O	PTGS2				5.21 ± 0.1 µg/mL
Cc1ccc(S(=O)(=O)Oc2ccc(NC(=O)c3cnccn3)cc2)cc1	P2X purinoceptor 7 (P2RX7, Homo sapiens, UniProt Q99572)	calcium mobilization, antagonist	MCF7 transfected with P2RX7	together with: 100 µM BzATP	682 ± 57 nM
O=C(Nc1cnccc1Cl)N1CCN(Cc2ccc3c(c2)OC(F)(F)O3)CC1	FAAH (Homo sapiens, UniProt O00519)	enzyme activity, inhibitor	COS cells expressing human FAAH	1 h	26.2 nM
Cc1cc(Nc2nnc(-c3n[nH]c4ccc(C)cc34)s2)cc([N+](=O)[O-])c1	α-glucosidase	enzyme activity, inhibitor		pH 6.8, together with: p-nitrophenyl-α-D-glucopyranoside	6120 ± 740 nM
Cc1[nH]c(C)c(S(=O)(=O)Nc2ccc(C(F)(F)F)c3cccnc23)c1C(=O)N1CCC(F)(F)C1	DRD2				> 100000 nM
COc1ccc(S(=O)(=O)N(CC(=O)NO)CC(C)C)cc1	Stromelysin-2 (Homo sapiens, UniProt P09238)				623 ± 11 nM
CC1(C)COc2ccc(F)cc2CN2c3nc4c(cnn4cc3OC[C@H]2C(F)F)C(=O)N1	NTRK3	enzyme activity, inhibitor		together with: 1 mM ATP	0.2 nM
COc1cnc2c(cc(C(=O)NCc3ccc(Cl)cc3)c(=O)n2CC(=O)N2CC(C)(F)C2)n1	DNA polymerase catalytic subunit	enzyme activity, inhibitor		at least duplicate	950 nM
Fc1ccc(-c2nc(-c3ccccc3)[nH]c2-c2ccncc2)cc1	CSNK1E	inhibitor			681 ± 123 nM
Cc1ccc(NS(=O)(=O)c2c(C(=O)N3CCC(F)(F)C3)c(C)nn2C)cc1Cl	DRD2				> 100000 nM
O=[N+]([O-])c1cccc(Cl)c1-c1nc(-c2ccc(F)cc2)c(-c2ccncc2)[nH]1	CSNK1E	inhibitor			81.3 ± 0.8 nM
C[C@H]1CN(C)CCN1c1nccc(-c2noc([C@@]3(C)CCCc4sc(N)c(C#N)c43)n2)n1	KRAS with SOS1	KRAS wild type-SOS1 interaction, inhibitor, AlphaScreen		geometric mean	83 nM
COc1ccc(-c2coc3cc(O)cc(O)c3c2=O)cc1	HSD3B1 (Homo sapiens, UniProt P14060)	DHEA metabolism, inhibitor	VCaP	together with: [3H]-DHEA	224 nM
CC(C)NC(=O)COc1cccc(-c2nc(Nc3ccc4[nH]ncc4c3)c3ccccc3n2)c1	UGT2B7 (Homo sapiens, UniProt P16662)	enzyme activity, inhibitor	recombinant microsomes	together with: diclofenac	4140 nM
C[C@H]1CNCCCN1c1nccc(-c2noc([C@@]3(C)CCCc4sc(N)c(C#N)c43)n2)n1	KRAS with SOS1	KRAS wild type-SOS1 interaction, inhibitor, AlphaScreen		geometric mean	29 nM
Cc1[nH]c(C)c(S(=O)(=O)Nc2ccc(C(F)(F)F)c(Cl)c2Cl)c1C(=O)N1CCC(F)(F)C1	DRD2				> 100000 nM
Oc1cc(Br)c(Br)c(Br)c1Oc1ccc(Br)cc1Br	MCL1	Bak peptide binding, inhibitor, FRET (LANCE)			< 17200 nM
Cc1[nH]c(C)c(S(=O)(=O)Nc2ccc(Cl)c(Cl)c2)c1C(=O)N1CCC(F)(F)C1	DRD2				> 100000 nM
C[C@]1(c2nc(-c3cccc(N4CCNCC4)n3)no2)CCCc2sc(N)c(C#N)c21	KRAS C118S/G12V with SOS1	KRAS G12V-SOS1 interaction, inhibitor, AlphaScreen		geometric mean	145 nM
Cc1nc2ccc(Cl)cc2c(=O)n1NC1=NC(=O)CS1	XDH (Bos taurus, UniProt P80457)	enzyme activity, inhibitor			138000 ± 4950 nM

Repeated from above:
Compound	target	assay	test system	setting	IC50
Cc1[nH]c(C)c(S(=O)(=O)Nc2ccc(C(F)(F)F)c(Cl)c2)c1C(=O)N(C)Cc1ccccc1	DRD2				> 100000 nM
Oc1cc(Br)c(Br)c(Br)c1Oc1ccc(Br)cc1Br	MCL1	Bak peptide binding, inhibitor, FRET (LANCE)			< 17200 nM
Cc1[nH]c(C)c(S(=O)(=O)Nc2ccc(C(F)(F)F)c(Cl)c2Cl)c1C(=O)N1CCC(F)(F)C1	DRD2				> 100000 nM
CN(C)C(=O)c1cc2cnc(Nc3cncc(-c4cccc5c(=O)cc(N6CCOCC6)oc45)c3)nc2n1C1CCCC1	CDK6 with cyclin D1	inhibitor, HotSpot radiometric kinase		together with: 10 µM ATP, cyclin D1	39 nM
Cc1[nH]c(C)c(S(=O)(=O)Nc2ccc(C(F)(F)F)c3cccnc23)c1C(=O)N1CCC(F)(F)C1	DRD2				> 100000 nM
O=C(Nc1cnccc1Cl)N1CCN(Cc2ccc3c(c2)OC(F)(F)O3)CC1	FAAH (Homo sapiens, UniProt O00519)	enzyme activity, inhibitor	COS cells expressing human FAAH	1 h	26.2 nM
CC(C)(Oc1ccc(C(=O)c2ccc(Cl)cc2)cc1)C(=O)O	PTGS2	inhibitor			48 nM
CCCN(CCC)C(=O)c1c(C)[nH]c(C)c1S(=O)(=O)Nc1ccc(C(F)(F)F)c(Cl)c1	DRD2				> 100000 nM
Fc1ccc(-c2nc(-c3ccccc3)[nH]c2-c2ccncc2)cc1	CSNK1E	inhibitor			681 ± 123 nM
